Experimental data gathered from unrelated publications.
Several values in a cell are separate wells, animals, samples, runs or records. Numbers after ± are the reported error.

Compound	test	test system	conditions	scale	endpoint	value
C=C(c1cc(F)c(C(=O)O)c(F)c1)c1cc2c(cc1C)C(C)(C)CCC2(C)C	RNA sequencing, measured: Emr4 mRNA	rat, brain	dose not given, 24 h, single dose	baseline: vehicle	log2 fold change	-0.1
Cc1ccc(C(=O)Nc2ccc(CP(=O)(O)O)cc2CP(=O)(O)O)cc1NC(=O)c1cccc(NC(=O)Nc2cccc(C(=O)Nc3cc(C(=O)Nc4ccc(CP(=O)(O)O)cc4CP(=O)(O)O)ccc3C)c2)c1		human plasma	329 µM		APTT	56.1 ± 6.7 s
C=CC(=O)N1C[C@H](C)N(c2nc(OC[C@@]34CCCN3C[C@H](F)C4)nc3c(F)c(-c4ccc(F)c5sc(N)c(C#N)c45)c(C(F)(F)F)cc23)C[C@H]1C		mouse, MIA PaCa-2 Matrigel plug	30 mg/kg single dose, 6 h		pERK inhibition	92%
[2H]C([2H])([2H])C(c1cc2nnc(-c3cc(F)ccc3F)n2nc1OCc1ncnn1C)(C([2H])([2H])[2H])C([2H])([2H])[2H]		amygdala-kindled Wistar rats	oral, 30 mg/kg, 2 h before stimulation, Racine scale, unit not given	baseline: baseline	seizure severity change	-3.8
CCCOC(=O)Cc1c(C)n(C(=O)c2ccc(Cl)cc2)c2ccc(OC)cc12		BALB/c mice, acetic acid writhing	intraperitoneal, 20 mg/kg, 20 min count		writhing count	13.3 ± 1.58
Cc1ncc([N+](=O)[O-])n1CCOCc1nnc(SCC(=O)c2ccc(Br)cc2)o1			75 µg/mL, 45 min		DPPH scavenging	40.57 ± 0.32%
COc1ccc2c(c1)c(CC(=O)OCOC(C)=O)c(C)n2C(=O)c1ccc(Cl)cc1	acetic acid writhing test	BALB/c mouse	intraperitoneal, 10 mg/kg	baseline: negative control	analgesia	61.8% and 61.7%
CC12CC(O)C3CC1(OC1OC(CO)C(O)C(O)C1O)C3(COC(=O)c1ccccc1)C(=O)O2 (centres unmarked)	tail suspension test	pseudo-germ-free mice, reserpine model	14 mg/kg, 7 days		immobility time	140 ± 15.6 s
O=c1c(OCc2ccccc2)c(-c2ccc(Cl)cc2)oc2ccccc12		diabetic rat	7.5 mg/kg, p-nitrophenyl β-glucoside induced		serum alkaline phosphatase	182 IU
CCCC[C@H](NC(=O)[C@@H](NC(=O)[C@H](CC(=O)O)NC(=O)[C@H](CCC(N)=O)NC(=O)[C@H](CC(C)C)NC(=O)[C@H](CC(C)C)NC(=O)[C@H](CCCN)NC(=O)[C@H](CCCNC(=N)N)NC(=O)[C@H](C)NC(=O)[C@H](CO)NC(=O)[C@H](CC(C)C)NC(=O)[C@H](CCC(N)=O)NC(=O)[C@H](CC)NC(=O)[C@H](CC(C)C)NC(=O)[C@@H](NC(=O)[C@H](CCCN)NC(=O)[C@H](CCCNC(=N)N)NC(=O)[C@H](Cc1ccc(O)cc1)NC(=O)[C@H](CO)NC(=O)[C@H](CCC(N)=O)NC(=O)[C@@H](NC(=O)[C@H](Cc1ccccc1)NC(=O)[C@@H](NC(=O)[C@H](C)NC(=O)[C@H](CC(=O)O)NC(=O)[C@@H](C)NC(=O)[C@H](Cc1ccc(O)cc1)NC)[C@@H](C)CC)[C@@H](C)O)C(C)C)[C@@H](C)CC)C(=O)N[C@@H](CC(=O)O)C(=O)N[C@@H](CCCNC(=N)N)C(=O)NC	GH release, ELISA	male Sprague-Dawley rat, anaesthetised, serum	subcutaneous, 3 µg/kg, 30 min		serum GH level	282 ± 18.6 ng/mL
COc1ccc2c(c1)c(CC(=O)OCC(=O)OC(C)(C)C)c(C)n2C(=O)c1ccc(Cl)cc1		BALB/c mice, acetic acid writhing	intraperitoneal, 10 mg/kg, 20 min count		writhing count	16.5 ± 1.65
C=C(c1ncc(C(=O)O)cn1)c1cc2c(cc1C)C(C)(C)CCC2(C)C	RNA sequencing, measured: Mpeg1	rat, brain	dose not given, 24 h	baseline: vehicle	log2 fold change	0.44
Cn1ncc2cc(-c3cncc(Cl)c3N3CCC4(CCNC4=O)CC3)ccc21	gene-expression microarray	Tet-O-β-catenin intestinal organoids, mouse	2 µM, 24 h		number of genes altered	219
COc1cc([C@@H]2c3cc4c(cc3[C@@H](OCc3cc(-c5ccc(C#N)cc5)no3)[C@H]3COC(=O)C23)OCO4)cc(OC)c1OC (some centres unmarked)	tubulin polymerisation, inhibitor				IC50	4.85 µM
Cc1cc2c(c(=O)o1)C=C1CCC(C(C)CNCc3ccc(O)cc3)CC1O2 (centres unmarked)		mouse hippocampal slices	1 µM		NMDA-dependent LTP magnitude	247 ± 20.7%
CC(C)CCC[C@@H](C)[C@H]1CCC([C@@H]2CC[C@H]3C[C@H](O)CC[C@]3(C)[C@H]2O)[C@]1(C)CC(=O)O (some centres unmarked)		C57BL/6J male mice, antibiotic-treated, ileum	oral gavage, 10 mg/kg, added: taurocholic acid 400 mg/kg		Tgr5 mRNA level	no effect

Compound	test	test system	conditions	scale	endpoint	value
COc1ccc(S(=O)(=O)N2CCc3ccccc3C2)cc1N1CCN(C(=O)c2ccc(F)cc2C(F)(F)F)CC1		6-OHDA lesioned rats	0.3 µg/24 h, 12 weeks post lesion	baseline: lesioned over intact side	TH-ir cells in SNpc	15.4 ± 1.9%
CC[C@H]1[C@@H](O)[C@@H]2[C@H](CC[C@]3(C)[C@@H]([C@H](C)CCOS(=O)(=O)[O-])CC[C@@H]23)[C@@]2(C)CC[C@@H](O)C[C@@H]12.[Na+]	EchoMRI	ob/ob NASH mouse model	oral, 10 mg/kg once daily, 8 weeks		whole-body lean mass	17.2 ± 0.2 g
CCCC[C@H](NC(=O)[C@@H](NC(=O)[C@H](CC(=O)O)NC(=O)[C@H](CCC(N)=O)NC(=O)[C@H](CC(C)C)NC(=O)[C@H](CC(C)C)NC(=O)[C@H](CCCN)NC(=O)[C@H](CCCNC(=N)N)NC(=O)[C@H](C)NC(=O)[C@H](CO)NC(=O)[C@H](CC(C)C)NC(=O)[C@H](CCC(N)=O)NC(=O)[C@H](CC)NC(=O)[C@H](CC(C)C)NC(=O)[C@@H](NC(=O)[C@H](CCCN)NC(=O)[C@H](CCCNC(=N)N)NC(=O)[C@H](Cc1ccc(O)cc1)NC(=O)[C@H](CO)NC(=O)[C@H](CCC(N)=O)NC(=O)[C@@H](NC(=O)[C@H](Cc1ccccc1)NC(=O)[C@@H](NC(=O)[C@H](C)NC(=O)[C@H](CC(=O)O)NC(=O)[C@@H](C)NC(=O)[C@H](Cc1ccc(O)cc1)N(C)C(C)=O)[C@@H](C)CC)[C@@H](C)O)C(C)C)[C@@H](C)CC)C(=O)N[C@@H](CC(=O)O)C(=O)NCCCCNC(=N)N	GH release, ELISA	male Sprague-Dawley rat, anaesthetised, serum	subcutaneous, 3 µg/kg, 30 min		serum GH level	65.4 ± 10.1 ng/mL
COc1ccc(-c2oc3ccccc3c(=O)c2OCc2ccccc2)cc1		diabetic rat	5 mg/kg, p-nitrophenyl β-glucoside induced		serum alanine aminotransferase	38.7 ± 2.61 IU
CCCCCCCCCCCCCCCC(=O)N[C@@H](CCC(=O)NCCCC[C@H](NC(=O)[C@H](CC(=O)O)NC(=O)[C@H](CO)NC(=O)[C@@H](NC(=O)[C@H](Cc1ccccc1)NC(=O)[C@@H](NC(=O)CNC(=O)[C@H](CCC(N)=O)NC(=O)[C@H](CO)NC(=O)[C@@H](N)Cc1c[nH]cn1)[C@@H](C)O)[C@@H](C)O)C(=O)N[C@@H](CO)C(=O)N[C@@H](CCC(=O)O)C(=O)N[C@@H](Cc1ccc(O)cc1)C(=O)N[C@@H](CC(C)C)C(=O)N[C@@H](CC(=O)O)C(=O)N[C@@H](CO)C(=O)N[C@@H](CCC(=O)O)C(=O)N[C@@H](CCCNC(=N)N)C(=O)N[C@@H](C)C(=O)N[C@@H](CCCNC(=N)N)C(=O)N[C@@H](CC(=O)O)C(=O)N[C@@H](Cc1ccccc1)C(=O)N[C@H](C(=O)N[C@@H](C)C(=O)N[C@@H](Cc1c[nH]c2ccccc12)C(=O)N[C@@H](CC(C)C)C(=O)N[C@@H](CCC(=O)O)C(=O)N[C@@H](C)C(=O)NCC(=O)NCC(=O)O)C(C)C)C(=O)O		male cynomolgus monkey	subcutaneous, 27 nmol/kg/day for 8 weeks, day 57	baseline: starting body weight	body weight loss	11%
Cc1ccc(-c2oc3ccccc3c(=O)c2OCc2ccccc2)cc1		diabetic rat	5 mg/kg, 28 days, p-nitrophenyl β-glucoside induced		serum total cholesterol	149 ± 4.8 mg/dL
COc1ccc2c(c1)c(CC(=O)OCC(=O)c1ccccc1)c(C)n2C(=O)c1ccc(Cl)cc1	acetic acid writhing test	BALB/c mouse	intraperitoneal, 30 mg/kg	baseline: negative control	analgesia	75.1%
COc1c2c(cc3oc(COC4OC(CO)C(O)C(O)C4O)cc(=O)c13)OC(C(C)(C)O)C2 (centres unmarked)		mouse, xylene ear edema	oral, 2 mg/kg		ear edema weight increase	5.45 ± 0.33 mg
CCCC[C@H](NC(=O)[C@@H](NC(=O)[C@H](CC(=O)O)NC(=O)[C@H](CCC(N)=O)NC(=O)[C@H](CC(C)C)NC(=O)[C@H](CC(C)C)NC(=O)[C@H](CCCN)NC(=O)[C@H](CCCNC(=N)N)NC(=O)[C@H](C)NC(=O)[C@H](CO)NC(=O)[C@H](CC(C)C)NC(=O)[C@H](CCC(N)=O)NC(=O)[C@H](CC)NC(=O)[C@H](CC(C)C)NC(=O)[C@@H](NC(=O)[C@H](CCCN)NC(=O)[C@H](CCCNC(=N)N)NC(=O)[C@H](Cc1ccc(O)cc1)NC(=O)[C@H](CO)NC(=O)[C@H](CCC(N)=O)NC(=O)[C@@H](NC(=O)[C@H](Cc1c(F)c(F)c(F)c(F)c1F)NC(=O)[C@@H](NC(=O)[C@H](C)NC(=O)[C@H](CC(=O)O)NC(=O)[C@@H](C)NC(=O)[C@H](Cc1ccc(O)cc1)NC)[C@@H](C)CC)[C@@H](C)O)C(C)C)[C@@H](C)CC)C(=O)N[C@@H](CC(=O)O)C(=O)N[C@@H](CCCNC(=N)N)C(=O)NC	GH release, ELISA	male Sprague-Dawley rat, anaesthetised, serum	subcutaneous, 3 µg/kg, 0 min		serum GH level	29.5 ± 3.2 ng/mL
COc1ccc(C2CC(c3ccc(C)cc3)=Nc3ccccc3S2)cc1 (centres unmarked)	oral glucose tolerance test	fasted normal rat, blood	oral, 10 mg/kg, 0 min, added: oral glucose 3 g/kg		blood glucose	103 ± 4.03 mg/dL
CN1CCC[C@]1(C)/C=C/S(=O)(=O)NC(=O)Nc1c2c(cc3c1CCC3)CCC2	IL-18 release	human, whole blood ex vivo	oral, 50 mg, 36 h after last dose, multiple ascending dose, added: LPS and ATP		inhibition	~90%
CCCC[C@H](NC(=O)[C@@H](NC(=O)[C@H](CC(=O)O)NC(=O)[C@H](CCC(N)=O)NC(=O)[C@H](CC(C)C)NC(=O)[C@H](CC(C)C)NC(=O)[C@H](CCCN)NC(=O)[C@H](CCCNC(=N)N)NC(=O)[C@H](C)NC(=O)[C@H](CO)NC(=O)[C@H](CC(C)C)NC(=O)[C@H](CCC(N)=O)NC(=O)[C@H](CC)NC(=O)[C@H](CC(C)C)NC(=O)[C@@H](NC(=O)[C@H](CCCN)NC(=O)[C@H](CCCNC(=N)N)NC(=O)[C@H](Cc1ccc(O)cc1)NC(=O)[C@H](CO)NC(=O)[C@H](CCC(N)=O)NC(=O)[C@@H](NC(=O)[C@H](Cc1ccccc1)NC(=O)[C@@H](NC(=O)[C@H](C)NC(=O)[C@H](CC(=O)O)NC(=O)[C@H](C)NC(=O)[C@H](Cc1ccc(O)cc1)NC)[C@@H](C)CC)[C@@H](C)O)C(C)C)[C@@H](C)CC)C(=O)N[C@@H](CC(=O)O)C(=O)NCCCCNC(=N)N	GH release, ELISA	male Sprague-Dawley rat, anaesthetised, serum	subcutaneous, 3 µg/kg, 15 min		serum GH level	305 ± 40 ng/mL
CCCCCCCCCCCCCCc1sc(NC(=O)CCN2CCC(O)CC2)nc1-c1ccccc1			0.1 mM, 20 min		DPPH radical scavenging	17.8%
CCCC[C@H](NC(=O)[C@@H](NC(=O)[C@H](CC(=O)O)NC(=O)[C@H](CCC(N)=O)NC(=O)[C@H](CC(C)C)NC(=O)[C@H](CC(C)C)NC(=O)[C@H](CCCN)NC(=O)[C@H](CCCNC(=N)N)NC(=O)[C@H](C)NC(=O)[C@H](CO)NC(=O)[C@H](CC(C)C)NC(=O)[C@H](CCC(N)=O)NC(=O)[C@H](CC)NC(=O)[C@H](CC(C)C)NC(=O)[C@@H](NC(=O)[C@H](CCCN)NC(=O)[C@H](CCCNC(=N)N)NC(=O)[C@H](Cc1ccc(O)cc1)NC(=O)[C@H](CO)NC(=O)[C@H](CCC(N)=O)NC(=O)[C@@H](NC(=O)[C@H](Cc1ccccc1)NC(=O)[C@@H](NC(=O)[C@H](C)NC(=O)[C@H](CC(=O)O)NC(=O)[C@H](C)NC(=O)CCc1ccc(O)cc1)[C@@H](C)CC)[C@@H](C)O)C(C)C)[C@@H](C)CC)C(=O)N[C@@H](CC(=O)O)C(=O)NCCCCNC(=N)N	GH release, ELISA	male rat, anaesthetised, serum	intravenous, 1 µg/kg, 15 min		serum GH level	198 ± 18.1 ng/mL
CN(C)c1ccc(-c2oc3ccccc3c(=O)c2OCc2ccccc2)cc1		diabetic rat	5 mg/kg, 28 days, p-nitrophenyl β-glucoside induced		serum LDL cholesterol	114 ± 3.4 mg/dL
O=C1CCN(Cc2ccccc2)CC1C(C[N+](=O)[O-])c1ccccc1 (centres unmarked)		mouse acetic acid writhing	25 mg/kg, added: yohimbine 1 mg/kg pretreatment		number of writhes	54.7 ± 1.2

Repeated from above:
Compound	test	test system	conditions	scale	endpoint	value
Cc1ncc([N+](=O)[O-])n1CCOCc1nnc(SCC(=O)c2ccc(Br)cc2)o1			75 µg/mL, 45 min		DPPH scavenging	40.57 ± 0.32%
COc1ccc2c(c1)c(CC(=O)OCOC(C)=O)c(C)n2C(=O)c1ccc(Cl)cc1	acetic acid writhing test	BALB/c mouse	intraperitoneal, 10 mg/kg	baseline: negative control	analgesia	61.8% and 61.7%
CC12CC(O)C3CC1(OC1OC(CO)C(O)C(O)C1O)C3(COC(=O)c1ccccc1)C(=O)O2 (centres unmarked)	tail suspension test	pseudo-germ-free mice, reserpine model	14 mg/kg, 7 days		immobility time	140 ± 15.6 s
O=c1c(OCc2ccccc2)c(-c2ccc(Cl)cc2)oc2ccccc12		diabetic rat	7.5 mg/kg, p-nitrophenyl β-glucoside induced		serum alkaline phosphatase	182 IU
